Results gathered from unrelated publications.
Protocols differ between the studies behind these lines. pIC50, pKd, pKi: −log10 of the molar value.
Target: Histone deacetylase 8 (HDAC8, Homo sapiens, UniProt Q9BY41)
Action: inhibitor
Residues used in one study (Q9BY41 1-377): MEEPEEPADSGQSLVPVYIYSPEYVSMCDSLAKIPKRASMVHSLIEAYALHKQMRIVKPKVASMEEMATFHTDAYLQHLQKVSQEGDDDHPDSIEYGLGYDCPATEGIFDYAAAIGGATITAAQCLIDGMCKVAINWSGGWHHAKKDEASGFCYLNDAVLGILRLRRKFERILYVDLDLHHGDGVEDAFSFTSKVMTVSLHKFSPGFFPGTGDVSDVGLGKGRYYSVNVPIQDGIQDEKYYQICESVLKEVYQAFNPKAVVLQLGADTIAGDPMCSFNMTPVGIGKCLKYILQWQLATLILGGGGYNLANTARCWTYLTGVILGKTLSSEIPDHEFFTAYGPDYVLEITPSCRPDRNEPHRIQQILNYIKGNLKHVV

The pIC50 of `Cc1c(COc2cc(OCc3cccc(C#N)c3)c(CN3CCCC[C@H]3C(=O)O)cc2Cl)cccc1-c1cccc(OCCCCCCC(=O)NO)c1` is reported as under 6.00 (enzyme activity).
`O=C(NO)c1cncc(OS(=O)(=O)Oc2ccc(Oc3ccccc3)cc2)c1` has a pKi of 5.91 (enzyme activity, fluorescence).
`Cc1c(COc2cc(OCc3cccc(C#N)c3)c(CNC(C)(CO)CO)cc2Cl)cccc1-c1cccc(OCCCCCCC(=O)NO)c1` has a pIC50 of under 6.00 (enzyme activity).
`CC(C)c1ccc(OS(=O)(=O)Oc2cncc(C(=O)NO)c2)cc1` has a pKi of 6.23 (enzyme activity, fluorescence).
The pKd of `O=C(NO)c1cnc(NC2(c3cccc(F)c3)CCCCC2)nc1` is reported as under 4.52 (competition pulldown; SW620 and MV4-11 lysate; 1 h).
For `CC[C@H](C)[C@@H]1NC(=O)[C@H](Cc2ccccc2C(F)(F)F)NC(=O)CCSCc2cccc(n2)CSCCCNC(=O)[C@H](CCCCCC(=O)NO)NC1=O`, the pKi was 7.00 (enzyme activity, fluorescence).
`O=C(CCc1ccc(CNC(C(=O)O)C2CCCCC2)cn1)NO` (stereo not shown) gave a pIC50 of 5.17 (enzyme activity).
`COc1ccc(C(=O)NO)cc1NC(=O)c1ccc(-c2ccccc2)cc1` has a pKd of under 4.52 (competition pulldown; SW620 and MV4-11 lysate; 1 h).
The pIC50 of `Cc1c(COc2cc(OCc3cccc(C#N)c3)c(CN3CCCC[C@@H]3C(=O)O)cc2Cl)cccc1-c1cccc(OCCCCCC(=O)NO)c1` is reported as under 6.00 (enzyme activity).
With `Cc1cc(C(C)(C)C)ccc1OS(=O)(=O)Oc1cccc(/C=C/C(=O)NO)c1` the pKi was 5.36 (enzyme activity, fluorescence).

Repeated from above:
`COc1ccc(C(=O)NO)cc1NC(=O)c1ccc(-c2ccccc2)cc1` has a pKd of under 4.52 (competition pulldown; SW620 and MV4-11 lysate; 1 h).
